Measurements collected from several papers.
± gives the spread as reported.
MCA2: Metacaspase-2 (MCA2, Trypanosoma brucei brucei, UniProt Q585F3)
blaNDM-1: Metallo-beta-lactamase type 2 (blaNDM-1, Klebsiella pneumoniae, UniProt C7C422)

| SMILES | target | assay | test system | setting | Ki |
| --- | --- | --- | --- | --- | --- |
| Cc1cc(O)cc(C)c1CCC(=O)N[C@@H]1C/C=C/CC[C@@H](C(N)=O)NC(=O)[C@H](Cc2ccccc2)NC(=O)[C@H](Cc2ccccc2)NC1=O | Oprm1 (Rattus norvegicus, UniProt P33535) | ligand displacement, radioligand |  | cell membranes | 16.7 nM |
| C[C@H](NC(=O)[C@H](CC(=O)O)NC(=O)c1ccccc1N)C(=O)N[C@@H](CCCNC(=N)N)C(=O)N[C@@H](CO)C(=O)N[C@@H](CO)C(=O)N[C@@H](C)C(=O)N[C@@H](CCC(N)=O)C(=O)NCCNc1ccc([N+](=O)[O-])cc1[N+](=O)[O-] | MCA2 | enzyme activity, competitive inhibitor | Trypanosoma brucei | together with: Z-FR-AMC substrate | 4200 nM |
| CC(C)C[C@H](NC(=O)[C@H](CCCCN)NC(=O)[C@H](CCCCN)NC(=O)Cc1cccc(CNC(=O)[C@@H](C)NC(=N)N)c1)C(N)=O | Genome polyprotein, NS2B-NS3 protease (ZIKV, UniProt A0A024B7W1) | inhibitor | Zika virus |  | 275 ± 7 nM |
| CC[C@H](C)[C@@H]1NC(=O)[C@@H]2CCCN2C(=O)[C@@H](CS)NC(=O)[C@H](CC(C)C)NC(=O)[C@@H](CCCNC(=N)N)NC(=O)[C@@H](CCCNC(=N)N)NC(=O)C(C)(C)NC(=O)[C@@H]2CCCN2C1=O | blaNDM-1 | enzyme activity, inhibitor |  | together with: nitrocefin 1.5 µM | 1940 nM |
| Cc1cc(O)cc(C)c1C[C@H](N)C(=O)N[C@H](CCCNC(=N)N)C(=O)N[C@@H](Cc1ccccc1)C(=O)N[C@@H](CCCCNC(=O)CN1CCN(CC(=O)O)CCN(CC(=O)O)CCN(CC(=O)O)CC1)C(N)=O | Oprd1 (Mus musculus, UniProt P32300) | binding | CD-1 mouse |  | 26.5 ± 5.5 nM |
| C[C@@H](Cc1ccsc1)NC(=O)NC[C@H](Cc1ccc(O)cc1)N(C)C | ADRA2A (Homo sapiens, UniProt P08913) | cell-free assay |  |  | 47000 nM |
| CC(C)(COP(=O)(O)OP(=O)(O)OC[C@H]1O[C@@H](n2cnc3c(N)ncnc32)[C@H](O)[C@@H]1OP(=O)(O)O)[C@@H](O)C(=O)NCCC(=O)NCCSCC(=O)N[C@@H](CO)C(=O)NCC(=O)N[C@@H](CCCNC(=N)N)C(=O)NCC(=O)N[C@@H](CCCCN)C(=O)NCCOCCOCC(=O)NCCCC[C@H](NC(=O)CC[C@@H]1NC(=O)[C@@H](CCCNC(=N)N)NC(=O)[C@H](CCCNC(=N)N)NC(=O)[C@@H](CCCNC(=N)N)NC(=O)[C@H](CCCNC(=N)N)NC(=O)[C@H](Cc2csc3ccccc23)NC(=O)[C@@H](Cc2ccccc2)NC(=O)[C@H](Cc2ccccc2)NC1=O)C(N)=O | NAA40 (Homo sapiens, UniProt Q86UY6) | enzyme activity, inhibitor, fluorescence |  |  | 65 nM |
| Cc1cc(O)cc(C)c1C[C@H](N)C(=O)N[C@H](CCCNC(=N)N)C(=O)N[C@@H](Cc1ccccc1)C(=O)N(C)CC(=O)N(C)Cc1cc(C(F)(F)F)cc(C(F)(F)F)c1 | OPRD1 (Homo sapiens, UniProt P41143, D95G) |  |  |  | 6.92 ± 0.06 nM |
| COc1c(O)cc2c3c1-c1ccccc1CC3N(C)CC2 (centres unmarked) | HTR2B (Homo sapiens, UniProt P41595) | ligand displacement, radioligand |  | cell membranes | 3.38 nM |
| CC[C@H](C)[C@H](NC(=O)[C@H](C)NC(=O)[C@H](CCCCN)NC(=O)c1ccccc1N)C(=O)N[C@@H](CO)C(=O)N[C@@H](CO)C(=O)N[C@@H](C)C(=O)N[C@@H](CCC(N)=O)C(=O)NCCNc1ccc([N+](=O)[O-])cc1[N+](=O)[O-] | MCA2 | enzyme activity, competitive inhibitor | Trypanosoma brucei | together with: Z-FR-AMC substrate | 4800 nM |
| CC[C@H](C)[C@@H]1NC(=O)[C@@H]2CCCN2C(=O)[C@@H](CS)NC(=O)[C@H](CC(C)C)NC(=O)[C@@H](CCCNC(=N)N)NC(=O)[C@@H]([C@H](C)O)NC(=O)C(C)(C)NC(=O)[C@@H]2CCCN2C1=O | blaNDM-1 | enzyme activity, inhibitor |  | together with: nitrocefin 1.5 µM | 15400 nM |

A few entries again:
| SMILES | target | assay | test system | setting | Ki |
| --- | --- | --- | --- | --- | --- |
| CC[C@H](C)[C@H](NC(=O)[C@H](C)NC(=O)[C@H](CCCCN)NC(=O)c1ccccc1N)C(=O)N[C@@H](CO)C(=O)N[C@@H](CO)C(=O)N[C@@H](C)C(=O)N[C@@H](CCC(N)=O)C(=O)NCCNc1ccc([N+](=O)[O-])cc1[N+](=O)[O-] | MCA2 | enzyme activity, competitive inhibitor | Trypanosoma brucei | together with: Z-FR-AMC substrate | 4800 nM |
